Assay results pooled from the literature.
Parts stem from different laboratories: compare values within a part only. Positions count from the first letter of the parent shown.

Block 1 — method: RNA Bind-n-Seq; form: RNA; sample: in vitro; concentration: 200 nM; setting: whole 134-nt RNA, ends assumed; with: 150 mM LiCl; relative to: input library; reading: higher = stronger binding; each molecule: 7-deaza-guanosine replaces G
Target: Ras GTPase-activating protein-binding protein 1, full length (G3BP1, Homo sapiens, UniProt Q13283)
Chain of UniProt Q13283 (whole entry, looked up): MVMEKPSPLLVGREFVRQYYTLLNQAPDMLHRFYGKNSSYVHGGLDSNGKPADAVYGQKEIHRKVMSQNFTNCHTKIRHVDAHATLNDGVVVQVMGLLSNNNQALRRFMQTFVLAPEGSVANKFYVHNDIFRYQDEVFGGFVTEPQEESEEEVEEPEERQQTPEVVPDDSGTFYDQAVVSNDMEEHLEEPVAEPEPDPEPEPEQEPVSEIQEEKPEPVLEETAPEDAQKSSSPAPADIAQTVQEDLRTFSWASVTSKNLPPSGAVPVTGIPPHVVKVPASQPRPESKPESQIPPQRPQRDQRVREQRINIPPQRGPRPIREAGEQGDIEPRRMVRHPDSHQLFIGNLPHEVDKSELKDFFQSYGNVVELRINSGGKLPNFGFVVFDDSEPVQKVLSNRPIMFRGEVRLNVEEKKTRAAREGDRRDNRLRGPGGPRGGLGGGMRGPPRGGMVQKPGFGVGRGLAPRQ
`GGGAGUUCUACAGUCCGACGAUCCAAGUCCUGUGCUACACAUCGUAUGUACCGAAUCGGGUUUUGGUUUUGGUUUUGGGAAAGUAUUAUGUUACGCCGUUCGGAUCUGCACUUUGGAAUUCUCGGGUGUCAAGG` has a log2 enrichment of -1.
`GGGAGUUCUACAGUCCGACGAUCUCAAGUCCUGUGCUACACAUCGUAUGUACCGAAUCGGUUUUUGGUUUUUGGUGGAAAGUAUUAUGUUACGCCGUUCGGAUCUGCACUUCCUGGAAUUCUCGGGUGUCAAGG` has a log2 enrichment of -0.698.
`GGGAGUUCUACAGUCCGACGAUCUCCUGUGCUACACAUCGUAUGUACCGAAUCGGGGUUUUUGGGGUUUUUGGGUUUUUGGGAAAGUAUUAUGUUACGCCGUUCGGAUCUGCAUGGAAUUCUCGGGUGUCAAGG` gave a log2 enrichment of 0.922.
With `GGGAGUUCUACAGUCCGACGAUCUUUCAGGGCGCCCUGCGUCCGGCAGAGGAGGCGAGCAUCCCGCUCAGGUGAUGAGGAACCCCUCGCGCACCCAGCGCAGAAGGCUGCUGCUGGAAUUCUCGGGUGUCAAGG` the log2 enrichment was -2.12.
With `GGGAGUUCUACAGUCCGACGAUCUCCUGUGCUACACAUCGUAUGUACCGAAUCAAAUUUAAAUUUUUUUAAACCCCCCCAAAAAAGUAUUAUGUUACGCCGUUCGGAUCUGCAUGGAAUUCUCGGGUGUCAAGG` the log2 enrichment was 1.41.
`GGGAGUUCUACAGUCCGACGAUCCUCAAGUCCUGUGCUACACAUCGUAUGUACCGAAUCGGUUUGGUGGUUUUUGGAAAGUAUUAUGUUACGCCGUUCGGAUCUGCACUUCCAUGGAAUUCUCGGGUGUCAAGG` has a log2 enrichment of 0.256.
With `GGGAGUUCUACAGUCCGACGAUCCCUCAAGUCCUGUGCUACACAUCGUAUGUACCGAAUCGGGUGGGUGGGGUGGAAAGUAUUAUGUUACGCCGUUCGGAUCUGCACUUCCAGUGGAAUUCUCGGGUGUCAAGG` the log2 enrichment was -1.09.
The log2 enrichment of `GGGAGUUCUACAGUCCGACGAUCCCUCAAGUCCUGUGCUACACAUCGUAUGUACCGAAUCGGAGGUGGUUUUUGGAAAGUAUUAUGUUACGCCGUUCGGAUCUGCACUUCCAGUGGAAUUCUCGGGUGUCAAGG` is reported as -0.0396.
With `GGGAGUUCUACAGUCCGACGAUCCAAGUCCUGUGCUACACAUCGUAUGUACCGAAUCGGGUGGGUUUUUGGGUUUGGGAAAGUAUUAUGUUACGCCGUUCGGAUCUGCACUUCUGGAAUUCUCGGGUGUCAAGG` the log2 enrichment was -0.951.
`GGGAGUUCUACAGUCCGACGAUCACGCUCCAUGAAAGCUAGGAGGGAGUGAAAUAUCAGUGAUCAUCGCAAGGAAGGAGGCAGACAAGAGUAAGGCACACCUGACUCUUAGGAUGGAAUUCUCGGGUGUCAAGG` gave a log2 enrichment of -0.942.
The log2 enrichment of `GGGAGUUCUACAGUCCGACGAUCUUCAGUUUCCCAAACCUGAGAUGAUCUGUCAGCUGGAGAACUGGGACGAGCAGUGGAUCCUGGAUCUACCGAGAACUGGGAAUAGGAAGGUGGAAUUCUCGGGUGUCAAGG` is reported as 0.915.

Block 2 — target: CCNE1, cyclin fold, Cln2 fusion (human); method: yeast growth competition, sequencing; sample: yeast; setting: strong parent motif; relative to: not given; reading: higher = stronger binding
Starting sequence: PKMYT1 docking peptide (human); SFEPRNLLSLFED; partner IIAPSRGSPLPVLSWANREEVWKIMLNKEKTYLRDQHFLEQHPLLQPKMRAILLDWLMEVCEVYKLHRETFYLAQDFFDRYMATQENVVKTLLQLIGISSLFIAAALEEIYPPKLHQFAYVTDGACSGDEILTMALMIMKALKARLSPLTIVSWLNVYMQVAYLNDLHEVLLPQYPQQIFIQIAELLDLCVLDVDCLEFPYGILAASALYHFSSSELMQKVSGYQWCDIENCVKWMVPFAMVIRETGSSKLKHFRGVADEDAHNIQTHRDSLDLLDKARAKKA
For `SFEPRNLLQLFED [S9Q]`, “normalised enrichment score” read 1.89.
`SFELRNLLSLFED [P4L]` — result for “normalised enrichment score”: 0.869.
`SFEPRNALSLFED [L7A]` — result for “normalised enrichment score”: 0.655.
For `SFEPRNLLSLFRD [E12R]`, “normalised enrichment score” read 1.65.
`SFEPRNLLSLFAD [E12A]` — result for “normalised enrichment score”: 1.74.
For `PFEPRNLLSLFED [S1P]`, “normalised enrichment score” read 1.72.
For `SFEPRNLESLFED [L8E]`, “normalised enrichment score” read -3.26.
`SFEPRDLLSLFED [N6D]` — result for “normalised enrichment score”: 1.36.
`SFKPRNLLSLFED [E3K]` — result for “normalised enrichment score”: 3.45.
`SPEPRNLLSLFED [F2P]` — result for “normalised enrichment score”: 0.869.
`SFEPRNLLSLFMD [E12M]`: “normalised enrichment score” 1.79.
Under “normalised enrichment score”, `SFEPRNGLSLFED [L7G]` is recorded as 0.739.
`SFEPRNLLSLVED [F11V]`: “normalised enrichment score” 0.248.
`SFEHRNLLSLFED [P4H]`: “normalised enrichment score” -0.18.
Under “normalised enrichment score”, `SFEPRNLLSCFED [L10C]` is recorded as 1.57.
`DFEPRNLLSLFED [S1D]`: “normalised enrichment score” 1.89.
For `SFEPRNSLSLFED [L7S]`, “normalised enrichment score” read 0.215.
`SFEPRNLLSLFID [E12I]` — result for “normalised enrichment score”: 2.44.
For `SFEPRNLLSLFEV [D13V]`, “normalised enrichment score” read 1.68.
Under “normalised enrichment score”, `SFIPRNLLSLFED [E3I]` is recorded as 1.68.
Under “normalised enrichment score”, `SFEPRNLLSLFDD [E12D]` is recorded as 2.02.

Block 3 — method: RNA Bind-n-Seq; form: RNA; sample: in vitro; concentration: 100 nM; relative to: input RNA pool; reading: higher = stronger binding
Target: RING finger protein unkempt homolog, zinc fingers 1-6, SBP tag (UNK, Homo sapiens, UniProt Q9C0B0, residues 30-357)
Chain of UniProt Q9C0B0 (30-357, looked up): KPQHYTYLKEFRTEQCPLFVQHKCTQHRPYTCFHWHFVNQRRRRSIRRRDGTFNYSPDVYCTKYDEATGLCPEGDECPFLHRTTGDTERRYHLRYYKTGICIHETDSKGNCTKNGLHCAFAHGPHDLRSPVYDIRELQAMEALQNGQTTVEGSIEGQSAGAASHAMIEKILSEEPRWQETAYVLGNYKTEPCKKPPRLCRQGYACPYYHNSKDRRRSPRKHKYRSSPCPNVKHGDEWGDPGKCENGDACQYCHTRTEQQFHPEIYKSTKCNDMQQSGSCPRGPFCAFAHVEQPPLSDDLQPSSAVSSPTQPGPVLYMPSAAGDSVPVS
Setting: RNA with constant flanks, vertebrate orthologous sites, ends assumed
The bound/input enrichment of `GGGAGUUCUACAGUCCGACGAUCCCCUCUUAAUCCCAUAUCUUCUGUUUCAUAAUGCUGAAGUCAUAUCUUCAAUUACUCUAUUAGUGACCUUAUUUUAAUUUUAGAGAACCCUUCAGUAUGGAUACUGUGAGCUGAAAUGGACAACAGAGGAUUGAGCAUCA` is reported as 1.39 ratio.
`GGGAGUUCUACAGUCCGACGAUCAUUACACUAAUACUGAAGUUAAAAUUAAAAGGAUAUCCAAGGUGAUGAUAAAAGUGUGUGUUGGUAGUUACUAAAAGAACUUUAGCUGUUAUUGCCUUGUAUUUCUAUCCCUUGUUUCAGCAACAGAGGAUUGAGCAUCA` has a bound/input enrichment of 0.367 ratio.
For `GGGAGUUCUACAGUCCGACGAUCGCAUACCCCAUCACUGUGAUAUUUAAAAUAUGCACAGUCCUAAUUCUUUCUAAAUGACCCUAUUGUUUUUCUAGCUGUAUCUUUGUAUCUCAUACUGUUAUUUAUCAGUUUUGUUCCCCACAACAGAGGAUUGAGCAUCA`, the bound/input enrichment was 1.77 ratio.
`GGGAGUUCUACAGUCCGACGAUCCUCUCUUAGUGAUAGUAUUCCAUCUGUAGCAGAUUCUCACUCGAGUCAUUUUUCUGAGUUUAGUUGCUCAGAUAUGGAAAGUAUGAAAACUUCCUGCAGCCAUGGUUCCAGCGACUAUCACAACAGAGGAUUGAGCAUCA` gave a bound/input enrichment of 0.448 ratio.
`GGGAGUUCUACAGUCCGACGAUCCUGAAGCUUUGUGUUUGGCUGCACCUGCAUAAGCUGCUACAAAUAGAAUAAAGAAUUUCAUAGCCUGUAUCUAUCAUUUUAGAUGCAUGGAAAAAAUGGGCUUUGCACACAAUGGGUUUGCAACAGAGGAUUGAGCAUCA` gave a bound/input enrichment of 2.02 ratio.
`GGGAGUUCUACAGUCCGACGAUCUUUUGUGAGGGCUUGGGGGGUGGGGGGGAUGUAUGGAUGUGAUUAGCAGUUUUGACUGUUCAAAGGUUCCUCACUUUUCCCCCCGCUUUAAUUGGAUGCACUGACCUGGCCCAGGAAGAGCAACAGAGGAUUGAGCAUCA` has a bound/input enrichment of 0.238 ratio.
`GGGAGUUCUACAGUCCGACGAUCAUUUAGAAUGUUAAUAAAUUGCUCUGAGAUUCCUCAAGUCCAUUUUGUAAGAUCAGACCAUAGGUGGGUGUUGUUUCUUUUAAGUUUGUGUACUGUGUCCAAUGUUACAUUUUUAAAAGUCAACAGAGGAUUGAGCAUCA` has a bound/input enrichment of 3.25 ratio.
For `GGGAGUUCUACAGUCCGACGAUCUGAAUAGUAGUAUAGAAGAAACAGUUGUCUUCCUUUAUCUUUUAUCCUCUAGCUAAUAGCUAGUCUACUUUUUAAAAUUUCACACUUUACUGCUCUUUGAAUUGAUAAUUCCAAUUCAAUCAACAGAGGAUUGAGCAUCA`, the bound/input enrichment was 0.613 ratio.
`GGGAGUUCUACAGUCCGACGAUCUUUUGUUUUGUUUUGCACAUGACAGUGUGUGUAUUGAUCUGAGGAAGGAGGGGGGUGCUGGUGCAGUUGCCCUCCAGUGCCCCCCACCCUCACUACCCCACCUGGUGUCUUUGCCACGUUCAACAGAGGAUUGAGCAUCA` has a bound/input enrichment of 0.337 ratio.
The bound/input enrichment of `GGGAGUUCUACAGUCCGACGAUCCUCAUUUCCAGGUUGGCUCUAGUGGAAAAGUCAUAGGAAUUGACCACAUUAAAGAGCUAGUAGAUGACUCAAUAAAUAAUGUCAGAAAGGACGAUCCGGUGCUUUUGUCUUCAGGGAGAGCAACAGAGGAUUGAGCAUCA` is reported as 0.547 ratio.
With `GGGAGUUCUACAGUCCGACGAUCAGAAAAUUUCAACCAAGAAUCUGAAGGUAGAAGUACAGGACCGUGGUUGUCUUCCUCACUUAGGAAUAGAUGCACACCCUUGUUCUCUAGAAGGAGGCGUGAGGGAAGAGAUGAGUCCUCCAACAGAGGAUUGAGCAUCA` the bound/input enrichment was 0.536 ratio.

Block 4 — method: protein-binding microarray; form: double-stranded DNA, one strand shown; sample: in vitro; concentration: 250 nM; setting: 60-bp whole probe; with: salmon DNA 0.4 mg/ml; relative to: random background probes; reading: higher = stronger binding; constant ends, left off below: GCCTAGCAC … GTCTTGATTCGCTTGACGCTGCTG
Target: Interferon regulatory factor 7, full length, phosphomimetic (IRF7, Homo sapiens, UniProt Q92985, residues 1-503, S101K/S471D/S472D/S475D/S476D/S477D/S483D/S484D/S487D)
Chain of UniProt Q92985 (whole entry, unmodified, looked up): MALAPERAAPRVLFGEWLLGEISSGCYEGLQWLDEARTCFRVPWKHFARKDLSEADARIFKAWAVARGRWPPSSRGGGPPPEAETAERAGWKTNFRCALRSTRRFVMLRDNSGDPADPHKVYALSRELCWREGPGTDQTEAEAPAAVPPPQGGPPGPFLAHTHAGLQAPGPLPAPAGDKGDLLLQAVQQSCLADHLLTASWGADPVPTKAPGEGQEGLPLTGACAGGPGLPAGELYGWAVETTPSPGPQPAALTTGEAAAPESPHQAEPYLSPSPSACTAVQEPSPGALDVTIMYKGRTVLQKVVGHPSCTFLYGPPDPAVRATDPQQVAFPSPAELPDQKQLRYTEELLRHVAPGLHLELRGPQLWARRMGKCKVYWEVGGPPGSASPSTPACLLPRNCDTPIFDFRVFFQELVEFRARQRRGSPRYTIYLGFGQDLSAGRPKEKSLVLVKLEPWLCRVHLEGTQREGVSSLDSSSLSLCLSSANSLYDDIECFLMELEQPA
`TTAGATTTCAGTCTCGATTCGTGCTAG` has a log fluorescence of 5.25 z-score.
With `TTAGGTATCCTTCTCCTTCAGTGCTAG` the log fluorescence was 0.174 z-score.
With `TTAGGACTGGACTTTCTGTTAGTGCTA` the log fluorescence was -0.292 z-score.
For `TTAGGTATAGACTTTCGGTTAGTGCTA`, the log fluorescence was 0.643 z-score.
For `GTGTATATGGACGTCTGAAGGTGCTAG`, the log fluorescence was -0.228 z-score.
With `TCATTTTTCCCTCTGGAACTGTGCTAG` the log fluorescence was 1.32 z-score.
`TTAGATTTAAGTCTCGATTAGTGCTAG` has a log fluorescence of 1.36 z-score.
`CAGAAAATGGAAACTCGTATGGTGCTA` gave a log fluorescence of 1.01 z-score.
The log fluorescence of `TTAGGCATCGACTTTCGGTTAGTGCTA` is reported as 1.26 z-score.
For `TTGGGTCTCGGACTGGGTTAGTGCTAG`, the log fluorescence was -0.072 z-score.
`TTAGGTCTCGGTCTCGGTTGGTGCTAG` gave a log fluorescence of 2.55 z-score.
For `TGGGATTTTGTCCTCCCCTCGTGCTAG`, the log fluorescence was -0.119 z-score.
The log fluorescence of `TTAGGTTTCCTTATCCCTTAGTGCTAG` is reported as 2.61 z-score.
For `GACGGACTGAGTTTCGAGACGTGCTAG`, the log fluorescence was 3.03 z-score.
For `GTTATCCTATATCTGAACCGGTGCTAG`, the log fluorescence was 2.61 z-score.
The log fluorescence of `TTAGGTCTACTTATCCTTTAGTGCTAG` is reported as 0.422 z-score.
`GACGATTTCGGGACTGGAGACGTGCTA` has a log fluorescence of 0.117 z-score.
With `TTGGGTTTCGACTTTCGGTTAGTGCTA` the log fluorescence was 9.71 z-score.
`TTAGAACTGAATATCGATTAGTGCTAG` gave a log fluorescence of 0.0249 z-score.
`TTAGGTTCCCTTGTCCTTTAGTGCTAG` gave a log fluorescence of 0.721 z-score.

Excerpt of the above (block 2):
`SFELRNLLSLFED [P4L]` — result for “normalised enrichment score”: 0.869.
`SFEPRNALSLFED [L7A]` — result for “normalised enrichment score”: 0.655.
For `SFEPRNLLSLFRD [E12R]`, “normalised enrichment score” read 1.65.
`SFEPRNLLSLFAD [E12A]` — result for “normalised enrichment score”: 1.74.
For `PFEPRNLLSLFED [S1P]`, “normalised enrichment score” read 1.72.
For `SFEPRNLESLFED [L8E]`, “normalised enrichment score” read -3.26.
